# Measured values collected from several papers.
# Protocols differ between the studies behind these lines. ± marks the error that the study gave.
# PPO3: PPO3 (Agaricus bisporus, UniProt C7FF04)
# Chain of UniProt C7FF04 (whole entry, looked up): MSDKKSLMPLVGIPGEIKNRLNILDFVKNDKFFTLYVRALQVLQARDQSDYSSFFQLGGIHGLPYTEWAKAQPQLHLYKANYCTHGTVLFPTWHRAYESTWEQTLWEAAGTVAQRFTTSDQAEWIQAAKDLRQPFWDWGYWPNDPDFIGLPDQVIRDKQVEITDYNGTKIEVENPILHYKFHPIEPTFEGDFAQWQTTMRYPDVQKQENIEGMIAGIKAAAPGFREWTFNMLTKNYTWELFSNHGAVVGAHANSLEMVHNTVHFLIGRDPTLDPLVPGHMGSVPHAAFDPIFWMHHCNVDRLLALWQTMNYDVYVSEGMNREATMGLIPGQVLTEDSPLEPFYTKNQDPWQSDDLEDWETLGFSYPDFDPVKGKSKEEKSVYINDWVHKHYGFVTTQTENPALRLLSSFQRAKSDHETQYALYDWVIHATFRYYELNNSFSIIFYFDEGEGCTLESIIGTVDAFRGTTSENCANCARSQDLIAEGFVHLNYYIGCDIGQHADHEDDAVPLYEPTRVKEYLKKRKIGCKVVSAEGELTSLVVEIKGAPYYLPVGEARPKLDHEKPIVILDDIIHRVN
# SIRT1: NAD-dependent protein deacetylase sirtuin-1 (SIRT1, Homo sapiens, UniProt Q96EB6)
# Chain of UniProt Q96EB6 (whole entry, looked up): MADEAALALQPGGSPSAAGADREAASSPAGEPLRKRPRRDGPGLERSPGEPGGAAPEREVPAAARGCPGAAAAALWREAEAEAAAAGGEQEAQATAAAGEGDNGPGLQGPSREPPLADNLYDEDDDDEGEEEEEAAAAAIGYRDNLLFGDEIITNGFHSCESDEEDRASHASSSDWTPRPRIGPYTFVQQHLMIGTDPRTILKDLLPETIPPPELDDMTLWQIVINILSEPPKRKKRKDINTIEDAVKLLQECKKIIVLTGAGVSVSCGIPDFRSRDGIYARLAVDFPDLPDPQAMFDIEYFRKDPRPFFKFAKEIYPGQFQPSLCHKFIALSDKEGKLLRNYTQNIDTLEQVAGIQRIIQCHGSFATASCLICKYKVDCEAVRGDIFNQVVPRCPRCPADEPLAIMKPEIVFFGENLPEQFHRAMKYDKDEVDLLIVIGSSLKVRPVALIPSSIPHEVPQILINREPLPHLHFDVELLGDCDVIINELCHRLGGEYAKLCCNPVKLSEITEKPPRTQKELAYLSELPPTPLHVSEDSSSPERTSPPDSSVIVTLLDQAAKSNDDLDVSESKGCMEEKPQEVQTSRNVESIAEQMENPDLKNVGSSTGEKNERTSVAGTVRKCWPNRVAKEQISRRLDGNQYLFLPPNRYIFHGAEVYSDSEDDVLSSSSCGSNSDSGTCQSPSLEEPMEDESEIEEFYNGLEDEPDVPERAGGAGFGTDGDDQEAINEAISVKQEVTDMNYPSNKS
# GRPR: Gastrin-releasing peptide receptor (GRPR, Homo sapiens, UniProt P30550)
# Chain of UniProt P30550 (whole entry, looked up): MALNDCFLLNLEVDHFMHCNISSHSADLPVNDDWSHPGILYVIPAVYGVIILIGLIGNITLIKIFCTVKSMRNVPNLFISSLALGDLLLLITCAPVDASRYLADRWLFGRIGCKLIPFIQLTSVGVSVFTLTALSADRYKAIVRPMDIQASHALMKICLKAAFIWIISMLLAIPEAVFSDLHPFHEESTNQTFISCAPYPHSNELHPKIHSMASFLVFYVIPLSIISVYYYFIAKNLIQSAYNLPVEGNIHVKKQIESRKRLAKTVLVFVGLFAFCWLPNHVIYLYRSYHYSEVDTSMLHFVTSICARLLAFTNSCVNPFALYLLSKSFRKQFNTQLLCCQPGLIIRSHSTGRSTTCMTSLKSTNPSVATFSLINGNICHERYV
# MGLL: Monoglyceride lipase (MGLL, Homo sapiens, UniProt Q99685)
# Chain of UniProt Q99685 (whole entry, looked up): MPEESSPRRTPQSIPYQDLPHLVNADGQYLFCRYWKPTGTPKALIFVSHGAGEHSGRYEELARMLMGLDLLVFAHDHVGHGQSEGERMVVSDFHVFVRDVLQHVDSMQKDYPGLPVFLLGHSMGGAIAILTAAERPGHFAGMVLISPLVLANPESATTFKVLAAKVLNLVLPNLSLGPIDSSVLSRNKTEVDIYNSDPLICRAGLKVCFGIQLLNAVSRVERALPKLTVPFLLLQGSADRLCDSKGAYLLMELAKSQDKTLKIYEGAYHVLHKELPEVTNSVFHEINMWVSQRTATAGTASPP
# Faah: Fatty-acid amide hydrolase 1 (Faah, Rattus norvegicus, UniProt P97612)
# Chain of UniProt P97612 (whole entry, looked up): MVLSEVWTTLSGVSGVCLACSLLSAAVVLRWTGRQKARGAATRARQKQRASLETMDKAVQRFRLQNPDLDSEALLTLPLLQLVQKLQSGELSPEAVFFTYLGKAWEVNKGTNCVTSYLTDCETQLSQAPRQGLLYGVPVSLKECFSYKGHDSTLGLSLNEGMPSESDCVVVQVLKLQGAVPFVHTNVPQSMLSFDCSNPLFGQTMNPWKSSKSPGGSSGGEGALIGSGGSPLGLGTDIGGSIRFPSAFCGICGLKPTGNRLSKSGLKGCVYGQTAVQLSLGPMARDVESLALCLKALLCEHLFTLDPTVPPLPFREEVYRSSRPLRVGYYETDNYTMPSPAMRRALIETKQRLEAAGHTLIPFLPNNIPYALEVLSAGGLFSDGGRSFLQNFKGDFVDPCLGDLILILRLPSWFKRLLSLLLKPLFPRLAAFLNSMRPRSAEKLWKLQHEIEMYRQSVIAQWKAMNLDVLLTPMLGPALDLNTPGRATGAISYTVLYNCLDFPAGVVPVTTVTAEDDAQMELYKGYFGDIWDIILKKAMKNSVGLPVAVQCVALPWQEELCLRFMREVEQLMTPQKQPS
# Chain of UniProt Q01959 (whole entry, looked up): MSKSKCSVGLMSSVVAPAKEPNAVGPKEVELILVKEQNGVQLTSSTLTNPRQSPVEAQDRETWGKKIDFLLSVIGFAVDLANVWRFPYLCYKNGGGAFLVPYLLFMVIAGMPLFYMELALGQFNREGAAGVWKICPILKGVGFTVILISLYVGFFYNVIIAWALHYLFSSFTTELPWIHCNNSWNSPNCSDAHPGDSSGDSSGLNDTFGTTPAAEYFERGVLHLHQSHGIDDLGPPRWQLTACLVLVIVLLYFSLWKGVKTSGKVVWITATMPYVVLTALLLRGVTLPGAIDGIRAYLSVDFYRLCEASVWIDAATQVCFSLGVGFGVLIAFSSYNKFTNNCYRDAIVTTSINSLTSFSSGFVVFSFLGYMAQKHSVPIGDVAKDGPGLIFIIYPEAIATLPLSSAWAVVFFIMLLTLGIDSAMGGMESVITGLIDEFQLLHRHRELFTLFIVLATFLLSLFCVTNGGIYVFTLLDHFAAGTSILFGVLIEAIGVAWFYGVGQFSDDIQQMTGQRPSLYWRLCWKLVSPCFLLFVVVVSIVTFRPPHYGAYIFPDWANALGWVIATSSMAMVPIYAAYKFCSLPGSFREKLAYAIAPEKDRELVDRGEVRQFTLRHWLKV
# Chain of UniProt Q09470 (whole entry, looked up): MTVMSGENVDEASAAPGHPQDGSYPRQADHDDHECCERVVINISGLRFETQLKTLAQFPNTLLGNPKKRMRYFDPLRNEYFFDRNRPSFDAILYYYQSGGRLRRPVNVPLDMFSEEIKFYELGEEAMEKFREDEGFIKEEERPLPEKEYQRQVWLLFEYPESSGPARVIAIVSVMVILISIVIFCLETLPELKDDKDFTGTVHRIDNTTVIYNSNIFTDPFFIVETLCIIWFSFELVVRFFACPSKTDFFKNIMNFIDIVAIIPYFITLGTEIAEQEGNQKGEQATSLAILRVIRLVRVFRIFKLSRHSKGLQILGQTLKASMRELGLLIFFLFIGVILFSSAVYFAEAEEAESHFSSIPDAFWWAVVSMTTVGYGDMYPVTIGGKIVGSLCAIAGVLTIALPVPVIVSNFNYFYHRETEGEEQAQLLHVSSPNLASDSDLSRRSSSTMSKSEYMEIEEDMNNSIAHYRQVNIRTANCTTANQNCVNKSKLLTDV
# Chain of UniProt Q9UH17 (whole entry, looked up): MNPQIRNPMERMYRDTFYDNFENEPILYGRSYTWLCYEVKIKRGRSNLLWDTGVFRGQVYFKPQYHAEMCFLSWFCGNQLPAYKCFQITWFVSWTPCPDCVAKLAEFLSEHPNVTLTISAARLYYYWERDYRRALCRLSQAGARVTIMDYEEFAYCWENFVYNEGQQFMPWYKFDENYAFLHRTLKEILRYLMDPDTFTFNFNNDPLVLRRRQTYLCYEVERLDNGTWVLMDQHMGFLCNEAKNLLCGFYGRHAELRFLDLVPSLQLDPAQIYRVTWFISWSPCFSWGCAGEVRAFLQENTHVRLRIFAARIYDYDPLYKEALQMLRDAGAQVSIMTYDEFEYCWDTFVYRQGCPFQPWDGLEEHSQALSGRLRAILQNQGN
# Chain of UniProt Q96L34 (whole entry, looked up): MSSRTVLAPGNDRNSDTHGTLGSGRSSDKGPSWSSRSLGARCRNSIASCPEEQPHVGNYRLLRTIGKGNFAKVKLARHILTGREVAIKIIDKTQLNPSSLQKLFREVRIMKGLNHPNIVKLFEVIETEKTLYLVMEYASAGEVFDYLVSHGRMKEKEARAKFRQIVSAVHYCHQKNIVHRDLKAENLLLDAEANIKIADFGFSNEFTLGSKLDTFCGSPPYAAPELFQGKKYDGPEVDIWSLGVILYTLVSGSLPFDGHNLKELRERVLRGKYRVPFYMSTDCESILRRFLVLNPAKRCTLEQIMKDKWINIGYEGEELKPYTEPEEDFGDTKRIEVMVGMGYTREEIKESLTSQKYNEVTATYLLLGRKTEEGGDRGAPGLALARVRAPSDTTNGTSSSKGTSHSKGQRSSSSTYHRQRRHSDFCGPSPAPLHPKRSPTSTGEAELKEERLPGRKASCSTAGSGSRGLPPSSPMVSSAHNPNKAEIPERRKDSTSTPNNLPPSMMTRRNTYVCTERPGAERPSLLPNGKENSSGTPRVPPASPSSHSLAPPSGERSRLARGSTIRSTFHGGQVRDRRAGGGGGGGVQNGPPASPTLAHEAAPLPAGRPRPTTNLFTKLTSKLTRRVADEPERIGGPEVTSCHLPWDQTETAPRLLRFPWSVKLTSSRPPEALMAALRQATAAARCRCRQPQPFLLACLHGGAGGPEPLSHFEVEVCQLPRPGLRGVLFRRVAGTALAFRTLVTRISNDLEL
# Chain of UniProt P00383 (whole entry, looked up): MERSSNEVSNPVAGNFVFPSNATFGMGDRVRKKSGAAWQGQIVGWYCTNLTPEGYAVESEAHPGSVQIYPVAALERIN
SMILES,target,assay,test system,setting,IC50
O=C(NCCc1ccccn1)[C@@H]1Cc2ccccc2CN1S(=O)(=O)c1ccc2ccccc2c1,"KCNA2/KCNA1 (Homo sapiens, UniProt P16389+Q09470)","potassium current, inhibitor, automated patch clamp","CHO-K1, concatemer expressing",,1530 nM
COc1cc(O)cc(-c2cc3ccc(OC)cc3o2)c1,PPO3,"enzyme activity, inhibitor, absorbance",,pH 6.8,68200 nM
N/C(S)=N/N=C/c1ccccn1,"SOD1 (Homo sapiens, UniProt P00441)","enzyme activity, inhibitor",HeLa,24 h,12300 nM
Oc1cc(O)c2c(c1)O[C@H](c1ccc(O)c(O)c1)[C@@H](O)[C@@H]2c1c(O)cc(O)c2c1O[C@H](c1ccc(O)c(O)c1)[C@H](O)C2,PPO3,"enzyme activity, inhibitor",,,104000 nM
Cc1ccc(CNC(=O)[C@H](CCCCNC(=O)OCc2ccccc2)NC(=O)[C@H](CC2CCCCC2)NC(=O)Cc2cccnc2)cc1,"Proteasome component C5/PSMB5 (Homo sapiens, UniProt P20618+P28074)","β5 activity, inhibitor",,"added: Suc-LLVY-AMC, PA28α-activated",> 100000 nM
CN(C)CCCNc1c2c(c(C#N)c3nc4ccccc4n13)CCC2,"ERO1-like protein alpha (Homo sapiens, UniProt Q96HE7)","enzyme activity, inhibitor, fluorescence",,,9600 nM
C[C@H](OP(=O)(O)O)[C@H]1NC(=O)[C@H](CCCNC(=N)N)NC(=O)[C@@H](CCCNC(=N)N)NC(=O)[C@H](CCCNC(=N)N)NC(=O)[C@@H](Cc2ccc3ccccc3c2)NC(=O)[C@H](Cc2ccc3ccccc3c2)NC(=O)[C@@H]2CCCCN2C1=O,"PIN1 (Homo sapiens, UniProt Q13526)",fluorescence anisotropy competition,,added: FITC-labelled probe,> 10000 nM
Cc1ncc2c(n1)CN(C(=O)Nc1nc(-c3cccs3)ccc1N)C2,"HDAC11 (Homo sapiens, UniProt Q96DB2)","deacetylase activity, inhibitor, recombinant enzyme",,,> 30000 nM
O=C(O)C(=O)N1CCc2cccc(F)c2C1,"DUSP3 (Homo sapiens, UniProt P51452)","enzyme activity, inhibitor, fluorescence",,,490000 nM
OC[C@@]12CCC[C@@H]1CN(c1cc(-c3ccccc3)nc3ccnn13)C2,"Transcriptional enhancer factor TEF-3, YAP-binding domain (TEAD4, Homo sapiens, UniProt Q15561)",,,,275 nM
CCCCCCCCCCCCCC(=S)NCCCC[C@H](NS(C)(=O)=O)C(=O)N[C@H](C)C(=O)N[C@@H](CCCNC(=N)N)C(N)=O,SIRT1,"enzyme activity, inhibitor",,,3700 nM
CCCN(CCC)c1[nH]cnc2ncnc1-2,"Chemotaxis protein CheA (Escherichia coli, UniProt P07363)","enzyme activity, inhibitor, radiometric",,,268000 nM
CCCCCCCCCCCCCC(=S)NCCCC[C@H](NC(=O)[C@@H]1CCCN1)C(=O)N[C@@H](CCCCN)C(=O)N[C@H](C(=O)NCC(=O)O)[C@@H](C)O,"SIRT3 (Homo sapiens, UniProt Q9NTG7)",,,,17500 nM
CC(C)C[C@H](NC(=O)[C@H](CC(C)C)NC(=O)[C@H](Cc1c[nH]cn1)NC(=O)[C@@H](C)NC(=O)[C@@H](NC(=O)[C@H](C)NC(=O)[C@H](Cc1c[nH]c2ccccc12)NC(=O)[C@H](CCC(N)=O)NC(=O)[C@H](N)Cc1ccccc1)C(C)C)C(N)=O,GRPR,"ligand displacement in cells, radioligand",,,10 nM
CN(CC(=O)c1ccc2[nH]c(=O)[nH]c2c1)Cc1ccco1,"DNA dC->dU-editing enzyme APOBEC-3B (Homo sapiens, UniProt Q9UH17)","enzyme activity, inhibitor",,pH 6,120000 nM
C[C@H](CC(=O)C[C@@H](C)[C@H]1C[C@H](O)[C@@]2(C)C3=C(C(=O)C[C@]12C)[C@@]1(C)CCC(=O)C(C)(C)[C@@H]1C[C@@H]3O)C(=O)O,alpha-amylase,inhibitor,,,56.2 ± 2.38 µg/mL
O=C(OC[C@@]1(O)C(=O)C=C[C@@H](OC(=O)c2ccccc2)[C@@H]1O)c1ccccc1,MGLL,"enzyme activity, inhibitor",,,27900 nM
Cc1ccc(S(=O)(=O)Nc2cccc(C)c2C)cc1,"CA9 (Homo sapiens, UniProt Q16790)","enzyme activity, inhibitor",,,320 nM
CN1CCc2cc(Nc3ncc(C(F)(F)F)c(NCc4cc[nH]n4)n3)ccc2C1,"MARK4 (Homo sapiens, UniProt Q96L34)","enzyme activity, inhibitor, FRET",,,2.01 nM
COc1ccc([C@@H]2CC(=O)c3c(O)cc(O[C@@H]4O[C@H](CO[C@@H]5O[C@@H](C)[C@H](O)[C@@H](O)[C@H]5O)[C@@H](O)[C@H](O)[C@H]4O)cc3O2)cc1O,"SLCO1B3 (Homo sapiens, UniProt Q9NPD5)","8-FcA uptake, inhibitor, flow cytometry",HEK293 expressing SLCO1B3,"10 min, added: 8-FcA 2.5 µM",> 100000 nM
O=C(OC(C(F)(F)F)C(F)(F)F)N1CCC(CCn2nc3ccccc3n2)CC1,Faah,"enzyme activity, inhibitor",,,> 10000 nM
Cn1c(=O)n(CCCO)c(=O)c2c1nc(Oc1cccc(OC(F)(F)F)c1)n2Cc1ccc(C2(C(F)(F)F)N=N2)cc1,"TRPC5 (Homo sapiens, UniProt Q9UL62)","calcium signal, inhibitor, fluorescence",,,18 nM
CC[C@H](C)[C@H](NC(=O)[C@H](Cc1ccccc1)NC(=O)[C@H](CC(=O)O)NC(=O)[C@H](CCCNC(=N)N)NC(=O)[C@H](C)NC(=O)[C@H](C)NC(=O)[C@H](CC(C)C)NC(=O)[C@H](CC(N)=O)NC(=O)[C@H](CC(=O)O)NC(=O)[C@H](CC(C)C)NC(=O)[C@@H](NC(=O)[C@@H](NC(=O)[C@H](CC(N)=O)NC(=O)[C@H](CCSC)NC(=O)[C@H](CCC(=O)O)NC(=O)[C@H](CC(=O)O)NC(=O)[C@H](CO)NC(=O)[C@H](Cc1ccccc1)NC(=O)[C@H](CO)NC(=O)[C@H]1CCC[C@@H]1NC(=O)[C@H](CC(=O)O)NC(=O)[C@H](C)NC(=O)[C@@H](N)Cc1c[nH]cn1)[C@@H](C)O)[C@@H](C)CC)C(=O)N[C@@H](CC(N)=O)C(=O)N[C@@H](Cc1c[nH]c2ccccc12)C(=O)N[C@@H](CC(C)C)C(=O)N[C@H](C(=O)N[C@@H](CCC(N)=O)C(=O)N[C@H](C(=O)N[C@@H](CCCCN)C(=O)N[C@H](C(=O)N[C@H](C(=O)N[C@@H](CC(=O)O)C(N)=O)[C@@H](C)O)[C@@H](C)CC)[C@@H](C)O)[C@@H](C)CC,"GLP2R (Homo sapiens, UniProt O95838)",,,,240 nM
O=C(O)c1ccc(OCCCCCCCCCCOc2ccc(C(=O)O)cc2)cc1,"Dihydrofolate reductase type 2 (Escherichia coli, UniProt P00383)","enzyme activity, inhibitor",,pH 7,285000 ± 80000 nM
Oc1cc(O)c2c(c1)OC(c1ccc(O)c(O)c1)C(OC1(c3ccc(O)c(O)c3)Oc3cc(O)cc(O)c3C(O)C1O)C2 (stereo not drawn),"GPR35 (Homo sapiens, UniProt Q9HC97)",DMR desensitization,HT-29,"with Tween-80 0.025%, added: zaprinast",65600 nM
Cc1cc2c(NC(=O)N[C@@H]3CC(C)(C)Oc4c(OC(F)(F)F)cccc43)cccc2cn1,"TRPV1 (Homo sapiens, UniProt Q8NER1)","heat-activated current, antagonist",,added: heat 48 °C,17 nM
CNCc1c(OCc2ccc(F)cc2)ccc2ccccc12,"SLC6A3 (Homo sapiens, UniProt Q01959)","transporter uptake, inhibitor, radiometric",,,2560 nM
CN(C(=O)c1ccn2ncc(-c3ccc(C(N)=O)cc3)c2c1)c1ccc(C#N)cn1,"RET (Homo sapiens, UniProt P07949)","enzyme activity, inhibitor",,,> 10000 nM
CN(CCOc1ccc(F)cc1)C(=O)c1cccc(S(=O)(=O)N2CCc3ccccc3C2)c1,"CACNA1C (Homo sapiens, UniProt Q13936)","calcium signal, fluorescence",,,1550 nM
CCC1(CC)C(=O)N(c2cccc(CN3CCN(Cc4ccc(Br)cc4)CC3)c2)C1=O,"Dipeptidyl peptidase 2 (Homo sapiens, UniProt Q9UHL4)","cell-free assay, inhibitor",,,> 10000 nM
Cc1ccc(N(O)/N=N/c2ccc(S(=O)(=O)Nc3nccs3)cc2)cc1,α-glucosidase (rat intestine),"enzyme activity, inhibitor",,added: PNPG substrate,314 µg/mL
CC(C)C[C@H](NC(=O)OCc1ccccc1)C(=O)N[C@@H](C[C@H]1CCNC1=O)C(=O)C(=O)NC1CC1,"Genome polyprotein, 3C protease (rhinovirus B14, UniProt P03303)","3C protease activity, inhibitor, FRET",,,180 ± 30 nM
CC1=C(/C=C/C(C)=C/C=C/C(C)=C/CO)C(C)(C)CCC1,"CNGA1 (Bos taurus, UniProt Q00194)","cGMP-activated current, inhibitor, inside-out patch clamp",Xenopus oocytes,"1 h steady state, +100 mV, added: 2 mM cGMP",300 nM
CC(C)C[C@@H](CN[C@H](Cc1ccccc1)C(N)=O)NC(=O)[C@H](Cc1c[nH]cn1)NC(=O)CNC(=O)[C@@H](NC(=O)[C@H](C)NC(=O)[C@H](Cc1c[nH]c2ccccc12)NC(=O)[C@H](CCC(N)=O)NC(=O)[C@H](N)Cc1ccccc1)C(C)C,GRPR,"inositol phosphate generation, antagonist",Balb 3T3 expressing GRPR,added: GRP 1 nM,151 ± 13 nM
O=C(OC(C(F)(F)F)C(F)(F)F)N1CCC(CCn2ccc3ncccc32)CC1,MGLL,"enzyme activity, inhibitor",,,300 nM
COCCn1cc(COc2cccc(Cc3cnc(NC(=O)CSc4nc(C)cc(C)n4)s3)c2)nn1,SIRT1,"enzyme activity, inhibitor, fluorescence",,,> 100000 nM
O=C(NCCCN1CCC(Cc2ccccc2)CC1)c1ccc(-c2ccccc2)cc1,"SLC6A2 (Homo sapiens, UniProt P23975)","transporter uptake, inhibitor, radiometric",,,10 to 2120 nM
O=C(Nc1ccc(OC(F)(F)F)cc1)N1CCC(Cc2cccc(Oc3ccc(C(F)(F)F)cn3)c2)CC1,Faah,"enzyme activity, inhibitor, fluorescence",rat brain microsomes,60 min preincubation,300 nM
CNC(=O)C1CCN(c2cc(C)c(F)cc2NC(=O)c2ccc(-c3c(C)ccc4[nH]ncc34)c(C)c2)CC1,"EPHA5 (Homo sapiens, UniProt P54756)","target engagement in cells, BRET",,,38 nM
Cc1nc(Nc2ncc(C(=O)Nc3c(C)cccc3Cl)s2)cc(N2CCN(CCOC(=O)[C@@H](N)CS)CC2)n1,"CSK (Homo sapiens, UniProt P41240)","enzyme activity, inhibitor",,,500 nM
CCC1(CC)C[C@@H](NC(=O)Nc2cccc3c(C)nccc23)c2cc(F)ccc2O1,"TRPM8 (Homo sapiens, UniProt Q7Z2W7)","channel activity, blocker",,added: menthol 10 µM,> 25000 nM
CN(C)c1ccc2c3c(cccc13)C(=O)N(CCS)C2=O,"VIM-2 (Escherichia coli, UniProt Q5U7L7)","enzyme activity, inhibitor",,pH 7,110 nM

# Repeated from above:
SMILES,target,assay,test system,setting,IC50
CC(C)C[C@H](NC(=O)OCc1ccccc1)C(=O)N[C@@H](C[C@H]1CCNC1=O)C(=O)C(=O)NC1CC1,"Genome polyprotein, 3C protease (rhinovirus B14, UniProt P03303)","3C protease activity, inhibitor, FRET",,,180 ± 30 nM
Cc1ccc(N(O)/N=N/c2ccc(S(=O)(=O)Nc3nccs3)cc2)cc1,α-glucosidase (rat intestine),"enzyme activity, inhibitor",,added: PNPG substrate,314 µg/mL
Cn1c(=O)n(CCCO)c(=O)c2c1nc(Oc1cccc(OC(F)(F)F)c1)n2Cc1ccc(C2(C(F)(F)F)N=N2)cc1,"TRPC5 (Homo sapiens, UniProt Q9UL62)","calcium signal, inhibitor, fluorescence",,,18 nM
O=C(Nc1ccc(OC(F)(F)F)cc1)N1CCC(Cc2cccc(Oc3ccc(C(F)(F)F)cn3)c2)CC1,Faah,"enzyme activity, inhibitor, fluorescence",rat brain microsomes,60 min preincubation,300 nM
CN1CCc2cc(Nc3ncc(C(F)(F)F)c(NCc4cc[nH]n4)n3)ccc2C1,"MARK4 (Homo sapiens, UniProt Q96L34)","enzyme activity, inhibitor, FRET",,,2.01 nM
O=C(OC(C(F)(F)F)C(F)(F)F)N1CCC(CCn2ccc3ncccc32)CC1,MGLL,"enzyme activity, inhibitor",,,300 nM
Cc1ncc2c(n1)CN(C(=O)Nc1nc(-c3cccs3)ccc1N)C2,"HDAC11 (Homo sapiens, UniProt Q96DB2)","deacetylase activity, inhibitor, recombinant enzyme",,,> 30000 nM
